Assay results collected from several papers.
Each numbered part is a random draw from the data of one study; scales do not carry over between parts.
Sequence of UniProt Q8NEV4 (whole entry, looked up): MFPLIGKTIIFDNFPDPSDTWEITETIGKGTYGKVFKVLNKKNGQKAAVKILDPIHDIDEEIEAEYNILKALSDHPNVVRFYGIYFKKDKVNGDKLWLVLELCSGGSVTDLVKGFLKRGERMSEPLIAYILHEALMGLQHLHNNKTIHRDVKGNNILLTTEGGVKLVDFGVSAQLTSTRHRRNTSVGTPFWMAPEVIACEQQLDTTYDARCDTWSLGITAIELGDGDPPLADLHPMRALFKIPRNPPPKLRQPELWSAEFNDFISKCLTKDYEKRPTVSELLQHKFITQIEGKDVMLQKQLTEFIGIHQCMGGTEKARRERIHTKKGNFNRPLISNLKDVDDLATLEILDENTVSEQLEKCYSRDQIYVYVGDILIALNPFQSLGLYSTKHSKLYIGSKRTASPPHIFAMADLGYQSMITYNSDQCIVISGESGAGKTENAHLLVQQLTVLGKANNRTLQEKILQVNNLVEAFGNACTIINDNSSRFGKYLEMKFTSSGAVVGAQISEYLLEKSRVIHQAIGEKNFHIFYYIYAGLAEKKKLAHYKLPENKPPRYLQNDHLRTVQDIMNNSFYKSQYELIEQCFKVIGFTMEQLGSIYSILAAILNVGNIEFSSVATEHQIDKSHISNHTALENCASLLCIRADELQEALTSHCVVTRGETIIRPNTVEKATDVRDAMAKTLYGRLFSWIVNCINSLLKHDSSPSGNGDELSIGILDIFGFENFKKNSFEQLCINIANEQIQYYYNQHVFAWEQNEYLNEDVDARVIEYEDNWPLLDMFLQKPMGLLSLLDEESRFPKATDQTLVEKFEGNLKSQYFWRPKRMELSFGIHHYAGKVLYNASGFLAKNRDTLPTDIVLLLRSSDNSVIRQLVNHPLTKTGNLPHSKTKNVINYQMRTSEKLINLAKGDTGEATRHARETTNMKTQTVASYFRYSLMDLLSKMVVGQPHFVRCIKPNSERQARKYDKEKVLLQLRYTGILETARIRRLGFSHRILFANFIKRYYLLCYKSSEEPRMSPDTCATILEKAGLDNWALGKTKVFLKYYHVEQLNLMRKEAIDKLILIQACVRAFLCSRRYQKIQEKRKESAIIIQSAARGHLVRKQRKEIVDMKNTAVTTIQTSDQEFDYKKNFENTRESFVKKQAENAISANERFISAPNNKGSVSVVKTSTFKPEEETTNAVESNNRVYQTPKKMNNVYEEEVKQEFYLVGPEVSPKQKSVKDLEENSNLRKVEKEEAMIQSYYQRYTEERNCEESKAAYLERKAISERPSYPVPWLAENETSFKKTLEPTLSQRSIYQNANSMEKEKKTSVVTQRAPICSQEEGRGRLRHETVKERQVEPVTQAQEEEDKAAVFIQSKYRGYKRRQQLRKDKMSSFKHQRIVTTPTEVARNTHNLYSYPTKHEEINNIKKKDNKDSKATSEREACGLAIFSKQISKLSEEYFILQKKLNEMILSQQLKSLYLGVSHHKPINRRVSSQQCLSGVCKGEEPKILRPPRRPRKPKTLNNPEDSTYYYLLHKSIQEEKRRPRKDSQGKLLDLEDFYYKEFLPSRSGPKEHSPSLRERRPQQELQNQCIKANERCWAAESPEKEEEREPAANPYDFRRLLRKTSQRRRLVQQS
Sequence of UniProt Q8IVW4 (whole entry, looked up): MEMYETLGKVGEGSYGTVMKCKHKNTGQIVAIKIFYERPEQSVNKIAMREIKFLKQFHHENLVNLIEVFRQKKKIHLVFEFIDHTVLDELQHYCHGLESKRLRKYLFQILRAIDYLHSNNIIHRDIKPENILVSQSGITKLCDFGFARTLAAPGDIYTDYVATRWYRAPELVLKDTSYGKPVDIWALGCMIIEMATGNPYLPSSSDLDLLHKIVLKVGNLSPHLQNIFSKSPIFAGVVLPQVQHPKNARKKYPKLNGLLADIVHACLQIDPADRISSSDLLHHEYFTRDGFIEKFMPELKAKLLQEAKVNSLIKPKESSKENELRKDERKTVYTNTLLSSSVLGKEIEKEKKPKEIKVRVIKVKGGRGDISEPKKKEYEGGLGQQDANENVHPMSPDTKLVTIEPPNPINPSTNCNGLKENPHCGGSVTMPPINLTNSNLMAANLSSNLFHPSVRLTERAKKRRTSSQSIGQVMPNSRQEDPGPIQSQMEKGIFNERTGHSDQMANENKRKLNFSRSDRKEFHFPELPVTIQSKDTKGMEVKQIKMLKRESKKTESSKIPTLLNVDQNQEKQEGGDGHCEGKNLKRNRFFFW
Sequence of UniProt Q15569 (whole entry, looked up): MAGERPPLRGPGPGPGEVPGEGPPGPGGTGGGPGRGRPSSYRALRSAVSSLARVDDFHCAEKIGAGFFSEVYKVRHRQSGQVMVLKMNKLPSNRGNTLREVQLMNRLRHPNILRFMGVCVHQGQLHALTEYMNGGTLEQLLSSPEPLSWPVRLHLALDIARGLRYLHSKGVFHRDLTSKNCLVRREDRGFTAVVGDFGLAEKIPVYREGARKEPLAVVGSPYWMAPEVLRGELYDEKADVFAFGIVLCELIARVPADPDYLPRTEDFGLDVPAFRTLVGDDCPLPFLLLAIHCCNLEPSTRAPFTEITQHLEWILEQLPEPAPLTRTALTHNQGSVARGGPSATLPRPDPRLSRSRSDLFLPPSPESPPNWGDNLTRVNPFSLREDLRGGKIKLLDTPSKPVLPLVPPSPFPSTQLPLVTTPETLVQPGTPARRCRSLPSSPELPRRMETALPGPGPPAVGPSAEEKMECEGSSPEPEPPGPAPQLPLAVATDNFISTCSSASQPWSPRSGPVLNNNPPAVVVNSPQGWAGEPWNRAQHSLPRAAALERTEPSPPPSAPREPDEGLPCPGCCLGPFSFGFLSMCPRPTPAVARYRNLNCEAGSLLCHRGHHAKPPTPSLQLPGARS
Sequence of UniProt Q9BYT3 (whole entry, looked up): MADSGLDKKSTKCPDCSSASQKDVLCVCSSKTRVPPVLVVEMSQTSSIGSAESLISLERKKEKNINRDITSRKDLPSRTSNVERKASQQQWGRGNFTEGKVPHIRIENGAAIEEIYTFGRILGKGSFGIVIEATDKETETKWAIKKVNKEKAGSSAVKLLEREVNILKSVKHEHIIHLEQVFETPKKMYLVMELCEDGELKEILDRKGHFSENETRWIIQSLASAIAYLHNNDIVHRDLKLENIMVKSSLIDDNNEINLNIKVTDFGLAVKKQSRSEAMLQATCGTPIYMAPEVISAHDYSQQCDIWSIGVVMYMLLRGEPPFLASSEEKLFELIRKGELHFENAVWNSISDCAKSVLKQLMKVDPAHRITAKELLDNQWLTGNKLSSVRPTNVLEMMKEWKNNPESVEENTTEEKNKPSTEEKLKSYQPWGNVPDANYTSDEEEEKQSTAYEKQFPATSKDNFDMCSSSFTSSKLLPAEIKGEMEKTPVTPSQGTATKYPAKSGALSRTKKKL
Sequence of UniProt O15075 (whole entry, looked up): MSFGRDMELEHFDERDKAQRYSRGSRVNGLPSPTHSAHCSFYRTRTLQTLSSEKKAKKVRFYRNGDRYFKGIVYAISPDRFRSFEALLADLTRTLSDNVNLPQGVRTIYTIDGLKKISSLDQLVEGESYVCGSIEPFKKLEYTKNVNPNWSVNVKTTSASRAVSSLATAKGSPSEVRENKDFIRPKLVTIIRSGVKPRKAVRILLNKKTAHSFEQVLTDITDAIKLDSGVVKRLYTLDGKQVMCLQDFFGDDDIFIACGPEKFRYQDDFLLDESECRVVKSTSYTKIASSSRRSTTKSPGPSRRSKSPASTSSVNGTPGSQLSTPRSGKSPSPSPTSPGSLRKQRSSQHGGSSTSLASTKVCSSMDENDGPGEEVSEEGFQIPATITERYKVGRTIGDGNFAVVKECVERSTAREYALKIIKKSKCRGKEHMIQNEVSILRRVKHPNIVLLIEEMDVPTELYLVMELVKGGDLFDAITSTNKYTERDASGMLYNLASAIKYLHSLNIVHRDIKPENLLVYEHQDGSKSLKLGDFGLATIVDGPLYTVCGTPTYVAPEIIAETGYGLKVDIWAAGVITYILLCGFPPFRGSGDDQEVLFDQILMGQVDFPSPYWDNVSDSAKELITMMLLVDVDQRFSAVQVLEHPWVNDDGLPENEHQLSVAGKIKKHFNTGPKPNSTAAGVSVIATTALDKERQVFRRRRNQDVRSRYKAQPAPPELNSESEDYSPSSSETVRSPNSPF
Sequence of UniProt Q13163 (whole entry, looked up): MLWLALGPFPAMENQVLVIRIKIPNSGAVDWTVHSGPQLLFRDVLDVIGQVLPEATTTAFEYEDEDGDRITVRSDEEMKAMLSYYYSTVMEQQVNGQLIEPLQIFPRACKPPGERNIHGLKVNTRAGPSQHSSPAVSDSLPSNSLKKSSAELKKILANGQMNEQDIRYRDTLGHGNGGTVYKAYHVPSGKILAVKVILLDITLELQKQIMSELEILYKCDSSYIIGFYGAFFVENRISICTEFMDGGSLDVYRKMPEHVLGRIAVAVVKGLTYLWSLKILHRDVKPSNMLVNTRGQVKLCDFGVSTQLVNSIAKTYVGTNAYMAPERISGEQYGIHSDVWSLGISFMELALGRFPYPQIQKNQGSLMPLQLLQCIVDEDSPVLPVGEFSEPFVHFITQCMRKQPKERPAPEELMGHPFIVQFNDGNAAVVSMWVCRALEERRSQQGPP

Block 1 — technique: SPR
Target: WD repeat-containing protein 5 (WDR5, Homo sapiens, UniProt P61964)
SMILES	dissociation rate constant
C[C@@H]1CN(c2ccc(-c3cc(C(=O)NCCOCCOCCOCCOCCOCCOCCNC(=O)/C=C/c4[nH]cc(C(=O)N[C@@H](CC(N)=O)c5ccc(F)c(Cl)c5)c4-c4ccc(Cl)cc4F)ccc3F)cc2NC(=O)c2ccc(F)cc2C(F)(F)F)C[C@H](C)N1C	0.0045 s⁻¹
C[C@@H]1CN(c2ccc(-c3cc(C(=O)NCCCNC(=O)/C=C/c4[nH]cc(C(=O)N[C@@H](CC(N)=O)c5ccc(F)c(Cl)c5)c4-c4ccc(Cl)cc4F)ccc3F)cc2NC(=O)c2c[nH]c(=O)cc2C(F)(F)F)C[C@H](C)N1C	0.0016 s⁻¹
C[C@@H]1CN(c2ccc(-c3cc(C(=O)NCCOCCOCCOCCOCCNC(=O)Cn4cc(-c5[nH]cc(C(=O)N[C@@H](CC(N)=O)c6ccc(F)c(Cl)c6)c5-c5ccc(Cl)cc5F)cn4)ccc3F)cc2NC(=O)c2c[nH]c(=O)cc2C(F)(F)F)C[C@H](C)N1C	0.0018 s⁻¹

Block 2 — mode: inhibitor; concentration: 10 µM; relative to: control
Target: Diamine acetyltransferase 1 (Homo sapiens, UniProt P21673)
Target sequence (P21673 1-171): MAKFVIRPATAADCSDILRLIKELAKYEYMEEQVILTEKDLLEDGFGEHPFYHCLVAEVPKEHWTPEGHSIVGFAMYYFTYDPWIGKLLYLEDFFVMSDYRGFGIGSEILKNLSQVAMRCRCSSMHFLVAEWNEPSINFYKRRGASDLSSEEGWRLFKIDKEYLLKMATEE
Structure (SMILES)	remaining activity [%]
O=C(CC(O)(CC(=O)OCc1ccc(O[C@@H]2O[C@H](CO)[C@@H](O)[C@H](O)[C@H]2O)cc1)C(=O)O)OCc1ccc(O[C@@H]2O[C@H](CO)[C@@H](O)[C@H](O)[C@H]2O)cc1	94.9
O=C(/C=C/c1ccc(O)c(O)c1)O[C@@H]1CC(C(=O)O)=C[C@@H](O)[C@H]1O	87.6
COc1ccc2cc3[n+](cc2c1O)CCc1cc2c(cc1-3)OCO2	101
COc1ccc(-c2cc(=O)c3c(O)c(OC)c(OC)cc3o2)cc1	89.1
OC[C@H]1O[C@H](O[C@H]2O[C@H](CO)[C@@H](O)[C@H](O)[C@H]2O)[C@H](O)[C@@H](O)[C@@H]1O	71.1
COc1cc(O)c2c(=O)c(O)c(-c3ccc(O)c(O)c3)oc2c1	95.4
C/C(=C\C(=O)CC(C)C(=O)O)[C@H]1C[C@H](O)[C@@]2(C)C3=C(C(=O)C[C@]12C)[C@@]1(C)CCC(=O)C(C)(C)[C@@H]1C[C@@H]3O (stereo partly drawn)	106
COc1ccc(-c2cc(=O)c3c(O)c(OC)c(OC)cc3o2)cc1OC	91.7

Block 3 — observed: enzyme activity; mode: inhibitor; concentration: 0.5 µM; relative to: control
Target: Tyrosine-protein kinase Lyn, isoform B (LYN, Homo sapiens, UniProt P07948)
Sequence of UniProt P07948 (whole entry, looked up): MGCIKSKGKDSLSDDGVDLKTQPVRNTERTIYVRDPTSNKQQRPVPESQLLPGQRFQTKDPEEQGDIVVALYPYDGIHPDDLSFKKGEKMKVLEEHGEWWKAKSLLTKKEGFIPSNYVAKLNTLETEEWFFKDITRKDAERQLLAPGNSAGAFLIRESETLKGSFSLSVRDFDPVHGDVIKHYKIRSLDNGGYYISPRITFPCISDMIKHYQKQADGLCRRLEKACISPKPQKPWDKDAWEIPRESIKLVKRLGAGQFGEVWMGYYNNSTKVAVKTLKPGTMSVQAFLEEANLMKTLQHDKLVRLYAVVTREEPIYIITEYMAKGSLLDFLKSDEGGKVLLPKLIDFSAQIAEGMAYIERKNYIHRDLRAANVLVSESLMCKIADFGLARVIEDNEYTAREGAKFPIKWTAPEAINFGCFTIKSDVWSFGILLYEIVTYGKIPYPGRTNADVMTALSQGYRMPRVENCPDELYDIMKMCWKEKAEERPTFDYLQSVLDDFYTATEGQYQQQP
Compound	remaining activity
N#CC(=C(N)Sc1ccc(N)cc1)c1ccccc1C(F)(F)F	98.5%
O=C1NC(=O)C(c2c[nH]c3ccccc23)=C1c1c[nH]c2ccccc12	102%
O=S(=O)(NCCNC/C=C/c1ccc(Br)cc1)c1cccc2cnccc12	101%
O=C1Cc2c([nH]c3ccc([N+](=O)[O-])cc23)-c2ccccc2N1	89.3%
Cc1cc(Nc2nc(-c3ccccc3)nc3ccccc23)n[nH]1	88.7%
CC(=O)c1ccc(N2CCOCC2)cc1O	98.8%
Cc1cncc2cccc(S(=O)(=O)N3CCCN(C(=O)CN)C[C@@H]3C)c12	101%
COc1cc(Nc2c(C#N)cnc3cc(OCCCN4CCN(C)CC4)c(OC)cc23)c(Cl)cc1Cl	6%
Nc1ncnc2c1cnn2-c1ccccc1	99.7%
CC[n+]1c(/C=C/N(C)c2ccccc2)n(-c2ccccc2)c2ccc(-c3nc4ccccc4s3)cc21	110%
Oc1ccc(Nc2nc(-c3ccc(Cl)cc3)cs2)cc1	100%

Block 4 — concentration: 1 µM
Structure (SMILES): CC(=O)c1c(NS(C)(=O)=O)c2cc(-c3ccc(Cl)cc3)c(-c3ccc(Cl)cc3Cl)nc2n(C)c1=O
target	test	remaining binding
Dual specificity protein kinase CLK3 (CLK3, Homo sapiens, UniProt P49761)	cell-free assay, competition with immobilised ligand	92%
Serine/threonine-protein kinase 33 (STK33, Homo sapiens, UniProt Q9BYT3)	cell-free assay, competition with immobilised ligand	100%
Ephrin type-A receptor 3 (EPHA3, Homo sapiens, UniProt P29320)	cell-free assay, competition with immobilised ligand	92%
Calcium/calmodulin-dependent protein kinase kinase 1 (CAMKK1, Homo sapiens, UniProt Q8N5S9)	cell-free assay, competition with immobilised ligand	100%
Serine/threonine-protein kinase DCLK1 (DCLK1, Homo sapiens, UniProt O15075)	cell-free assay, competition with immobilised ligand	98%
Myosin-IIIa (MYO3A, Homo sapiens, UniProt Q8NEV4)	cell-free assay, competition with immobilised ligand	88%
Tyrosine-protein kinase ABL1, non-phosphorylated (ABL1, Homo sapiens, UniProt P00519, Q252H)	cell-free assay, competition with immobilised ligand	100%
Dual specificity testis-specific protein kinase 1 (TESK1, Homo sapiens, UniProt Q15569)	cell-free assay, competition with immobilised ligand	100%
Phosphatidylinositol 4-phosphate 5-kinase type-1 gamma (PIP5K1C, Homo sapiens, UniProt O60331)	cell-free assay, competition with immobilised ligand	100%
High affinity nerve growth factor receptor (NTRK1, Homo sapiens, UniProt P04629)	cell-free assay, competition with immobilised ligand	64%
Serine/threonine-protein kinase WNK2 (WNK2, Homo sapiens, UniProt Q9Y3S1)	cell-free assay, competition with immobilised ligand	62%
Mitogen-activated protein kinase 13 (MAPK13, Homo sapiens, UniProt O15264)	cell-free assay, competition with immobilised ligand	97%
Dual specificity mitogen-activated protein kinase kinase 5 (MAP2K5, Homo sapiens, UniProt Q13163)	cell-free assay, competition with immobilised ligand	80%
Phosphatidylinositol 5-phosphate 4-kinase type-2 gamma (PIP4K2C, Homo sapiens, UniProt Q8TBX8)	cell-free assay, competition with immobilised ligand	100%
Serine/threonine-protein kinase ULK3 (ULK3, Homo sapiens, UniProt Q6PHR2)	cell-free assay, competition with immobilised ligand	80%
Cyclin-dependent kinase-like 3 (CDKL3, Homo sapiens, UniProt Q8IVW4)	cell-free assay, competition with immobilised ligand	100%
Serine/threonine-protein kinase MRCK gamma (CDC42BPG, Homo sapiens, UniProt Q6DT37)	competition binding	100%

Repeated from above (block 3):
Compound	remaining activity
O=C1NC(=O)C(c2c[nH]c3ccccc23)=C1c1c[nH]c2ccccc12	102%
O=S(=O)(NCCNC/C=C/c1ccc(Br)cc1)c1cccc2cnccc12	101%
